Measured values pooled from the literature.
Parts stem from different laboratories: compare values within a part only. Positions count from the first letter of the parent shown.

Study 1 — technique: protein-binding microarray; molecule type: double-stranded DNA, one strand shown; matrix: in vitro; tested at: 2540 nM top; setting: 60-bp whole probe; together with: salmon DNA 0.4 mg/ml; baseline: random background probes; reading: higher = stronger binding; endpoint: fitted relative affinity; shared flanks, not repeated: GCCTAGCAC … GTCTTGATTCGCTTGACGCTGCTG
Target: Interferon regulatory factor 3, full length, phosphomimetic (IRF3, Homo sapiens, UniProt Q14653, residues 1-427, S386D/S396D/S398D/S402D/T404D/S405D)
Chain of UniProt Q14653 (whole entry, unmodified, looked up): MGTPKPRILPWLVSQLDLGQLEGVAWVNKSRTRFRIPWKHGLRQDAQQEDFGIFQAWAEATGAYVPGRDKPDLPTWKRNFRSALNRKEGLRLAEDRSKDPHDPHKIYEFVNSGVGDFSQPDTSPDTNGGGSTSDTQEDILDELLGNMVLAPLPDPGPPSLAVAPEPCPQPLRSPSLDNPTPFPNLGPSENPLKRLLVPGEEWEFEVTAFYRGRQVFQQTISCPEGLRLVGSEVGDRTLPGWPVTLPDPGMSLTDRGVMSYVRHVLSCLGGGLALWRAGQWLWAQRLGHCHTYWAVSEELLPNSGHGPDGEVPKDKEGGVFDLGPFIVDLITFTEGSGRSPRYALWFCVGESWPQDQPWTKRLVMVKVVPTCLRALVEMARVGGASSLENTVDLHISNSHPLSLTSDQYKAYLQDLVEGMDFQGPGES
GACGGACTGATTATCCTGACGTGCTAG: 0.343 z-score
TTAGATTTCGGGTTTCGACTAGTGCTA: 2.51 z-score
TTAGGTATCGGGTAACGGTTAGTGCTA: 0.727 z-score
TTAGATTTGAGTATCGATTAGTGCTAG: 0.355 z-score
GACGAACTCGGGACTGGAGACGTGCTA: -0.42 z-score
GACCGTTTCGGTTTCGGGACGTGCTAG: 10 z-score
TTAGGTATAGGTTTCGGTTAGTGCTAG: 4.33 z-score
TTAGGGCTGCTTTTCCTTTAGTGCTAG: 0.64 z-score
GACGGTATCGACTATCGGGATGTGCTA: 0.672 z-score
TTAGATATCAGACGGGATTAGTGCTAG: -0.269 z-score
GACGGTTTCGGTTCCGGGAGGTGCTAG: 9.85 z-score
TCAGATTTCCACTTTCTACTGTGCTAG: 2.55 z-score
AAGACCATCCTATGTAGATGTGTGCTA: 0.0332 z-score
TTAGAACTGGAGTATCGATTAGTGCTA: -0.273 z-score
GACGGTGTCCTTTCCCTGACGTGCTAG: 4.46 z-score
GACGGTATCGACTATCGGGACGTGCTA: 0.592 z-score
GACGAACTGGGGTATCCAGACGTGCTA: -0.187 z-score
TTAAGACTGGGGACTGGGTTAGTGCTA: -0.846 z-score
CCTAGTTTTACTTTCTATGTGTGCTAG: 4.24 z-score
TTAGATTTCGGGTTTTGATTAGTGCTA: 1.96 z-score
TTAGATTTCAGACTGGATTCGTGCTAG: 0.582 z-score
AACTCTTTGCAGATAAATACGTGCTAG: 0.405 z-score
TCACATCTGATTTCTCAAACTGTGCTA: 0.988 z-score
GACGATATCAGACTGGAGACGTGCTAG: 0.17 z-score
TTAGATATCGGGTATCGCTTAGTGCTA: 0.214 z-score

Study 2 — technique: DHFR PCA, deep sequencing; matrix: yeast; together with: (+)-ABA 0.11 µM; baseline: wild-type fitted maximum; reading: higher = stronger binding; endpoint: relative binding score
Target: ABI1, truncated, D143A, DHFR fusion (Arabidopsis thaliana)
Setting: methotrexate growth selection, single substitutions
Starting sequence: PYL1, truncated, DHFR fusion (Arabidopsis thaliana); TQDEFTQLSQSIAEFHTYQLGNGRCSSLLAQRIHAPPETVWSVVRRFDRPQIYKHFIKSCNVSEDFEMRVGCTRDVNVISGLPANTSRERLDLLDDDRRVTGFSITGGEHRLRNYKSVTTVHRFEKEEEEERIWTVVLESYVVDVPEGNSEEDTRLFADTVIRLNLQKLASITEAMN; partner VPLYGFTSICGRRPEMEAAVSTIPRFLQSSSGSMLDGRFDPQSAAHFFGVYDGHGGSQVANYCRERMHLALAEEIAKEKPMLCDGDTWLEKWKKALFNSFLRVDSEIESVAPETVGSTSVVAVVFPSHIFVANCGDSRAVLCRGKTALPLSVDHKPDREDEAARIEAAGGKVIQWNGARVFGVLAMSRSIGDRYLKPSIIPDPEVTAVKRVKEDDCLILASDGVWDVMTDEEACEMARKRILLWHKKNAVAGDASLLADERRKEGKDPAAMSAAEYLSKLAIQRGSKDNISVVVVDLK
E151T: 27.6%
A170Y: -34.8%
E129G: 63.3%
R88H: 58.9%
V44L: 14%
E125P: 33.6%
T39A: 25.1%
Q7I: 27.8%
V78I: 56%
P36T: 18.4%
F47P: -3.68%
N114Y: 3.91%
D96W: -7%
V76M: 3.01%
R49I: 3.52%
V76P: -1.19%
E4P: 12.2%

Study 3 — technique: RNA Bind-n-Seq; molecule type: RNA; matrix: in vitro; tested at: 365 nM; baseline: no-protein control; reading: higher = stronger binding; endpoint: RBNS enrichment (R)
Target: RNA binding protein fox-1 homolog 2, RRM domain, GST-SBP tag (RBFOX2, Homo sapiens, UniProt O43251-10, residues 100-194)
Setting: natural RNA segment, single round, ends assumed
Shared flanks, not repeated: GGGAGUUCUACAGUCCGACGAUC … UGGAAUUCUCGGGUGCCAA
Residues (chain): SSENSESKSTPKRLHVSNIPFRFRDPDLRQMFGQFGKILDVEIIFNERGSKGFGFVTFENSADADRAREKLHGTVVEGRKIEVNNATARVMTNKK
GUAAGAGGACCCGUGAGGACACCAGAGUCUAGCCCAGAAAGCCCGGGAGGGCUGGAGAGCGAGUACAGUUGUGAACGGGGUAAAGAAAGGCCCUCUAGUGAAGAUGUUGU: 0.54
GCACAGAACAGUCUCUCCGUGGGAGGAGACAUUAUGGGGCGUCCACCACCACCCCUCCCUGGCCAUCCUCCUGGAAUGUGGUCUGCCCUCCACCAGAGCUCCUGCCUGCC: 0.909
CAGACUUUGCACUUACUGCAGUGCACCACUUGCACUUUACUCCCUCCGGCUUCUGAGACAGAGCAAGUACUUCAGCAGUCCUGCUGCUCUUGCUCUGAGCUACAAUCAUG: 0.224
AACACCAUUUAAAAAGUCAUAUUUUUUCACAAAUAUAGAAAAUCAUUUUACAUAAGAAUUUUAAGUAUUUGCAAUAAAUAUAUGUAUAUAGAUUGUAUGUAUUCCUAUAU: 0.598
GAAGACUGUUCCACACCACAGAAAACCAACUUCAUUUUCUACUCAGAAUUUAUACCAAGAGACUCUUGUAGACGCCGCGGAUGUCCUCUAUAUUGUGAUACAGAAACUGU: 0.451
UGUGACGAUCACAGACCUUCGAUAAAUCUCAAAUCAUGAACCAGGGAGAUGGAUCACUGGGUAACAGCACUUGUCACCAAGCCCAACAGCCCAGGCUCAGUUCUUGGGAC: 0.251
CUGGAGGCUCUGAAUGUCUAACUUUAGCAUCAAAGUGUCUGUCUCAGAUUCCCAGUAAACACCUCUGUAGGGGAUGAAGUUUCCAUGUCCCCCAUCUUCCUUUUGGUCAC: 1.62
ACUCCACCGAAGAGGUGCGCCACUGGGAGCCACCCCAGCGCCAGGCGCCCGUCCAGGGACACACACAGUCUUCACUGUGCUGCAGCCAGAUGAAGUCUCUCAGAUGGGUG: 0.295
ACCAAAUAGAAAUGUAUAUUUUAUUAUGCAAUGCCUUAGUCAUAAACUGGGCUCAAACAAUCCUCAGCCUAAAACACUGUUGUCUUUUAAUAUGCUUCCAACCCAAAGGC: 0.436
GUUCCUUCACUAGGACAGGCACCAUGAGUGUGUUUCUAAGUUCCAGAGUCUGUGGGGAGGAUGGUGGGUGGGCAGCCAGCCCUGUUGCUAUGUUGCUUCUUCCACACCCC: 0.469
GUAUUCAGGCUGCUUUUGCUGCCUUUGGCCAGAGAGCUGGUUGAAGAUGUUUGUAAUCGUUUUCAGUCUCCUGCAGGUUUCUGUGCCCCUGUGGUGGAAGAGGGCACGAC: 0.714
AGGUAAAGACAGGGUUUCCUUACUUAACGGAUUUGAGCGCUUCUGUUCUCCAAACACAAUGGAAUUUCUUGUUCAAGAGCAGCUUCCAGAGUUGAGCCAGCCCUCGCUGC: 0.374

Study 4 — technique: protein binding microarray; molecule type: double-stranded DNA, one strand shown; matrix: in vitro; tested at: not given; baseline: not given; reading: higher = stronger binding; endpoint: E-score
Target: Histone acetyltransferase KAT6A, winged helix 1, GST fusion (KAT6A, Homo sapiens, UniProt Q92794, residues 1-85)
Setting: 8-mer, flanks averaged, mean of 2 arrays, mostly near background
Construct (chain): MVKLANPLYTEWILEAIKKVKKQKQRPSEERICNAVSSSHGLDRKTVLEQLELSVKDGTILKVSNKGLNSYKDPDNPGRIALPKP
AGTTTAGC: -0.0463
AGTGGTTA: -0.196
AACGGAAT: 0.16
AAAGAAGT: -0.114
CGTGAACA: 0.116
AATAGTCC: -0.123
CAGCGAAA: -0.0108
GCTCCAGC: 0.0296
GGTCAGAA: -0.0425
CCGGGACC: 0.354
TCTGCAGA: -0.0767
AAATGTAG: -0.0741
CTTAGAAC: -0.175
CTTAATCC: -0.0953
CTAGCTCA: -0.225
AGCTGGCC: 0.11
ACAAGGGG: -0.104
CTAACAAC: -0.0257
ACCAGGCT: -0.135
CCAGTATC: -0.165
AAGAGGCG: 0.167
ATCAGACC: 0.117
AATTGGGC: -0.227
CCGTCTTA: 0.147
ACATAGAC: -0.0873

Study 5 — target: CCNA1, cyclin fold, Cln2 fusion (human); technique: yeast growth competition, sequencing; matrix: yeast; setting: weak parent motif; baseline: not given; reading: higher = stronger binding; endpoint: normalised enrichment score
Starting sequence: SGO1 docking peptide (human); PLAKRALKYTDEK
PLAKRAAKYTDEK [L7A]: 0.0888
PAAKRALKYTDEK [L2A]: 0.703
PLAKAALKYTDEK [R5A]: -0.0874
PLAARALKYTDEK [K4A]: 0.41
PLAKRALKATDEK [Y9A]: 0.262
PLAKRALKYTDEA [K13A]: 0.414
